Assay results pooled from the literature.
± marks the error that the study gave.
RORC: Nuclear receptor ROR-gamma (RORC, Homo sapiens, UniProt P51449)
ESR1: Estrogen receptor (ESR1, Homo sapiens, UniProt P03372)
CDK2 with cyclin A: Cyclin-dependent kinase 2, with cyclin A (CDK2, Homo sapiens, UniProt P24941)

Compound	tested on	assay	system	setting	how to read	measurement	value
O=S(=O)(c1cccc(C(F)(F)F)c1)N1c2cc(OCc3c(F)cccc3Cl)ccc2CC1C(F)(F)F (stereo not drawn)	RORC	reporter gene, agonist, GAL4 luciferase reporter	–	together with: ursolic acid 2 µM	–	EC50	0.18 ± 0.03 µM
COc1c([C@H]2[C@H](C(=O)Nc3ccnc(C(N)=O)c3)O[C@@](C)(C(F)(F)F)[C@H]2C)ccc(F)c1F	PGR (Homo sapiens, UniProt P06401)	agonist	–	–	–	EC50	≥ 30 µM
COc1ccc(-c2cc(=O)c3c(O)cc(O[C@@H]4O[C@H](CO)[C@@H](O)[C@H](O)[C@H]4O[C@@H]4O[C@@H](C)[C@H](O)[C@@H](O)[C@H]4O)cc3o2)cc1O	ESR1	array formation, agonist	ERα-GFP PRL-HeLa	1 h	–	EC50	0.023 µM
COc1ccc(NC(=O)c2ccco2)cc1NC(=O)c1cccnc1	CDK2 with cyclin A	–	–	–	–	Kd	> 100 µM
COc1ccccc1COc1ccc2c(c1)N(S(=O)(=O)c1cccc(C(F)(F)F)c1)CC2	RORC	IL-17 production, inverse agonist	HEK-293T	together with: ursolic acid	–	EC50	0.11 µM
COc1c(O)cc2oc3cc(O)c(CC=C(C)C)c(O)c3c(=O)c2c1CCC(C)(C)O	Cyclin-dependent kinase 2, with cyclin E1 (CDK2, Homo sapiens, UniProt P24941)	kinase activity, inhibitor	–	–	–	EC50	28.2 µM
CCCCC[C@H](O)/C=C/[C@H]1[C@H](O)CC(=O)[C@@H]1C/C=C\CCCC(=O)O	PTGER1 (Homo sapiens, UniProt P34995, G92S)	IP1 accumulation, agonist	AD293	EP1 G92S mutant	–	EC50	0.00262 µM
O=c1c(-c2ccc(O[C@@H]3O[C@H](CO)[C@@H](O)[C@H](O)[C@H]3O)cc2)coc2cc(O)cc(O)c12	ESR1	array formation, agonist	ERα-GFP PRL-HeLa	1 h	–	EC50	0.819 µM
CC(=O)c1cc([N+](=O)[O-])c(Sc2cccc(Cl)c2Cl)s1	SENP1 (Homo sapiens, UniProt Q9P0U3)	enzyme activity, inhibitor	–	–	–	EC50	> 50 µM
O=S(=O)(c1cccc(C(F)(F)F)c1)N1CCc2ccc(OCc3ccccc3OC(F)(F)F)cc21	RORC	reporter gene, agonist, GAL4 luciferase reporter	–	together with: ursolic acid 2 µM	–	EC50	1.2 ± 0.24 µM
Cn1cc(-c2ccc(-c3cncc(Cl)c3N3CCC4(CCNC4=O)CC3)cc2)cn1	COLO 205	gene expression, microarray, measured: CFL2 mRNA	–	concentration not given, 6 h	baseline: untreated cells	log2 fold change	-1.72
Cn1cc2c(C(=O)O)ccc(NS(=O)(=O)c3ccc(OCC4CCC4)c(Cl)c3)c2n1	CNR1 (Homo sapiens, UniProt P21554)	agonist	–	–	–	EC50	> 10 µM
CC(C)=CCc1c(O)ccc(C(=O)/C=C/c2ccc(O)cc2)c1O	ESR1	array formation, agonist	ERα-GFP PRL-HeLa	1 h	–	EC50	4.17 µM
CCN(C(=O)C1CCN(S(=O)(=O)c2ccc3[nH]ncc3c2)CC1)[C@H](C)c1ccccc1	CHRM3 (Homo sapiens, UniProt P20309)	calcium mobilization, positive allosteric modulator	CHO cells expressing CHRM3	–	–	EC50	1.7 µM
Cn1cc(-c2cnc(N)n3nc(-c4ccco4)nc23)ccc1=O	ADORA2B (Homo sapiens, UniProt P29275)	–	–	–	–	EC50	> 100 µM
COc1c(O)cc2oc(-c3ccc(O)cc3)cc(=O)c2c1O	GABRA1 (Homo sapiens, UniProt P14867, D219N)	Western blot, measured: GABRA1 D219N protein level	HEK293T stably expressing α1 D219N	24 h	–	EC50	8.5 ± 1.1 µM
O=C1Nc2c(ccc(Cl)c2Cl)C1=NO	KCNN4/CALM1 (Homo sapiens, UniProt O15554+P0DP23, L185A)	ion current, activator, whole-cell patch clamp	–	–	–	EC50	1.27 µM
CC(C)=CCc1cc(-c2coc3cc(O)ccc3c2=O)ccc1O	ESR1	array formation, agonist	ERα-GFP PRL-HeLa	1 h	–	EC50	4.92 µM
O=S(=O)(c1cc(Cl)cc(Cl)c1)N1CCc2ccc(OCc3c(F)cccc3Cl)cc21	RORC	reporter gene, agonist, GAL4 luciferase reporter	–	together with: ursolic acid 2 µM	–	EC50	0.38 ± 0.1 µM
CCC(C)(C)C(=O)C(=O)N1CCCC[C@H]1C(=O)N[C@H](CCc1ccc(OC)cc1)C(=O)N1[C@@H]2CC[C@H]1C[C@H](Nc1nc(NCCc3sc(N)nc3C)nc(N3CCn4ncnc4C3)n1)C2	Autophagy-related protein 16-1 (ATG16L1, Homo sapiens, UniProt Q676U5)	protection from caspase-3 cleavage, AlphaLISA	–	–	–	EC50	11.5 µM
O=c1cc(-c2ccc(O)cc2)oc2c([C@@H]3O[C@H](CO)[C@@H](O)[C@H](O)[C@H]3O)c(O)cc(O)c12	ESR1	array formation, agonist	ERα-GFP PRL-HeLa	1 h	–	EC50	0.911 µM
COc1cccnc1COc1ccc2c(c1)N(S(=O)(=O)c1cccc(C(F)(F)F)c1)CC2	RORC	reporter gene, agonist, GAL4 luciferase reporter	–	together with: ursolic acid 2 µM	–	EC50	0.48 ± 0.13 µM
COc1ccc(CCC(=O)c2c(O)cc(O[C@@H]3O[C@H](CO)[C@@H](O)[C@H](O)[C@H]3O[C@@H]3O[C@@H](C)[C@H](O)[C@@H](O)[C@H]3O)cc2O)cc1O	ESR1	array formation, agonist	ERα-GFP PRL-HeLa	1 h	–	EC50	0.976 µM
CCCCCCCP(=O)(C(C)C)C(C)C	Trpm8 (Rattus norvegicus, UniProt Q8R455)	calcium influx, agonist, calcium fluorescence imaging	–	32 °C	–	EC50	2.24 ± 0.69 µM
CC(Oc1ccc2c(c1)N(S(=O)(=O)c1cccc(C(F)(F)F)c1)CC2)c1c(F)cccc1Cl (stereo not drawn)	RORC	reporter gene, agonist, GAL4 luciferase reporter	–	together with: ursolic acid 2 µM	–	EC50	0.75 ± 0.25 µM
O=c1cc(-c2ccc(O)cc2)oc2cc(O)c(O)c(O)c12	ESR1	array formation, agonist	ERα-GFP PRL-HeLa	1 h	–	EC50	3.19 µM
CC1CN(S(=O)(=O)c2cccc(C(F)(F)F)c2)c2cc(OCc3c(F)cccc3Cl)ccc21 (stereo not drawn)	RORC	reporter gene, agonist, GAL4 luciferase reporter	–	together with: ursolic acid 2 µM	–	EC50	1.8 ± 0.64 µM
O=C1C[C@@H](c2ccc(O[C@@H]3O[C@H](CO)[C@@H](O)[C@H](O)[C@H]3O)cc2)Oc2cc(O)ccc21	ESR1	array formation, agonist	ERα-GFP PRL-HeLa	1 h	–	EC50	2.67 µM
O=S(=O)(c1cccc(C(F)(F)F)c1)N1CCc2ccc(OCc3c(Cl)cccc3Cl)cc21	RORC	reporter gene, agonist, GAL4 luciferase reporter	–	together with: ursolic acid 2 µM	–	EC50	0.17 ± 0.04 µM
Cc1cc(C)c(S(=O)(=O)N(C)CC(=O)N2CCC(C(N)=O)CC2)c(C)c1	CDK2 with cyclin A	–	–	–	–	Kd	> 100 µM

A few entries again:
Compound	tested on	assay	system	setting	how to read	measurement	value
COc1ccc(NC(=O)c2ccco2)cc1NC(=O)c1cccnc1	CDK2 with cyclin A	–	–	–	–	Kd	> 100 µM
COc1ccccc1COc1ccc2c(c1)N(S(=O)(=O)c1cccc(C(F)(F)F)c1)CC2	RORC	IL-17 production, inverse agonist	HEK-293T	together with: ursolic acid	–	EC50	0.11 µM
COc1c(O)cc2oc3cc(O)c(CC=C(C)C)c(O)c3c(=O)c2c1CCC(C)(C)O	Cyclin-dependent kinase 2, with cyclin E1 (CDK2, Homo sapiens, UniProt P24941)	kinase activity, inhibitor	–	–	–	EC50	28.2 µM
CCCCC[C@H](O)/C=C/[C@H]1[C@H](O)CC(=O)[C@@H]1C/C=C\CCCC(=O)O	PTGER1 (Homo sapiens, UniProt P34995, G92S)	IP1 accumulation, agonist	AD293	EP1 G92S mutant	–	EC50	0.00262 µM
